Experimental data pooled from the literature.
Lines come from different studies, so protocols differ. Values joined by “and” are separate records of one study, mostly repeats; a detail may differ. ± marks the error that the study gave.

Oc1ccc2c3c1O[C@H]1[C@@H](O)CC[C@H]4[C@@H](C2)N(CC2CCC2)CC[C@@]341 — log k amino protonation: 9.92
CC[C@H](C)[C@H](NC(=O)[C@H](CCCCN)NC(=O)CNC(=O)[C@H](CC(C)C)NC(=O)[C@H](Cc1ccccc1)NC(=O)[C@H](CCCCN)NC(=O)[C@H](CO)NC(=O)[C@H](Cc1ccccc1)NC(=O)[C@H](Cc1c[nH]c2ccccc12)NC(=O)[C@H](CCC(N)=O)NC(=O)[C@@H](NC(=O)[C@H](Cc1ccccc1)NC(=O)CCCCCNC(=O)CN1CCN(CC(=O)O)CCN(CC(=O)O)CCN(CC(=O)O)CC1)C(C)C)C(=O)N[C@@H](CCC(=O)O)C(=O)N1CCC[C@H]1C(=O)N[C@@H](CC(=O)O)C(=O)N[C@H](C(=O)N[C@@H](CO)C(=O)N[C@@H](CCC(N)=O)C(=O)N[C@H](C(=O)N[C@@H](CCC(N)=O)C(=O)N[C@@H](CC(=O)O)C(=O)N1CCC[C@H]1C(=O)N[C@@H](CC(N)=O)C(=O)N[C@@H](CC(=O)O)C(=O)N[C@@H](CCC(N)=O)C(=O)N[C@@H](Cc1ccc(O)cc1)C(=O)N[C@@H](CCC(=O)O)C(=O)N1CCC[C@H]1C(=O)N[C@@H](Cc1ccccc1)C(=O)O)C(C)C)C(C)C [copper-64 labelled] — tissue uptake (C57BL/6 mice, large intestine; vehicle, intratracheal instillation): 4.13 ± 2.7 %ID/g
O=C1NC2(CC2)COc2ncc(F)cc2[C@H]2COCCN2c2ccn3ncc1c3n2 — organ-to-brain weight ratio (Sprague-Dawley rat, male, spleen; oral, 2.5 mg/kg/day, 4 weeks, end of treatment): 54.9 ± 11.9%
CC(=O)NCCCC[C@@H]1NC(=O)[C@H](Cc2c[nH]c3c(C)cccc23)NC(=O)[C@H]([C@@H](C)O)NC(=O)[C@H](CC(N)=O)NC(=O)[C@@H](NC(C)=O)C(C)(C)SSC(C)(C)[C@@H](C(=O)N[C@@H](Cc2ccc(OCCN)cc2)C(=O)N[C@@H](Cc2ccc3ccccc3c2)C(=O)NC2(C(=O)N[C@@H](CCC(=O)O)C(=O)N[C@@H](CC(N)=O)C(=O)N[C@@H](Cc3cccnc3)C(=O)N(C)CC(N)=O)CCOCC2)NC1=O — fraction unbound (human alpha-1-acid glycoprotein 0.07%; equilibrium dialysis; 1 µM): 98.9 ± 0.5%
COc1ccc(-n2cc(C(=O)N3C[C@]4(OC(=O)c5ccccc5NC(C)=O)CC[C@H](OC)[C@@]56[C@@H]4C[C@@H]([C@@H]35)[C@@]3(O)C[C@H](OC)[C@H]4C[C@@H]6[C@]3(O)[C@H]4OC)nn2)cc1 — concentration (Sprague-Dawley rat, plasma; intravenous, 2 mg/kg, 4.98 min): 0.0817 µg/mL
Cc1sc2c(c1C)C(c1ccc(Cl)cc1)=N[C@@H](CC(=O)OC(C)(C)C)c1nnc(C)n1-2 — AUC(0-t) (CD1 mouse, male, plasma; intravenous, 5 mg/kg): 2.13 µg·h/mL
CN1Cc2cc(Cl)ccc2-n2c(nnc2C2CCN(c3cccc([18F])n3)CC2)C1 — total volume of distribution (PET two-tissue compartment model; rhesus monkey, hippocampus; intravenous, dose not given, 100 min scan, baseline scan): 1.13 ± 0.31 mL/cm3
Cc1ccc(NS(=O)(=O)c2c(C(=O)N3CCCCCC3)c(C)n(C)c2C)c(Cl)c1 — viability (HaCaT; 0.015 µM, 60 h): 100% and 93.6%
Cc1nc2cccc(OCC(C)(C)C(=O)NC(C)C)c2c(N)c1C(=O)[O-].[Na+] — revertant colonies per plate (Salmonella typhimurium; TA1537; 0.051 mg per plate, without S9, plate incorporation): 13 ± 3

Excerpt of the above:
COc1ccc(-n2cc(C(=O)N3C[C@]4(OC(=O)c5ccccc5NC(C)=O)CC[C@H](OC)[C@@]56[C@@H]4C[C@@H]([C@@H]35)[C@@]3(O)C[C@H](OC)[C@H]4C[C@@H]6[C@]3(O)[C@H]4OC)nn2)cc1 — concentration (Sprague-Dawley rat, plasma; intravenous, 2 mg/kg, 4.98 min): 0.0817 µg/mL
